# Results collected from several papers.
# Numbers after ± are the reported error.
# SLCO1B3 M233I/S112A: Solute carrier organic anion transporter family member 1B3 (SLCO1B3, Homo sapiens, UniProt Q9NPD5, M233I/S112A)
# Sequence of UniProt Q9NPD5 (whole entry, unmodified, looked up): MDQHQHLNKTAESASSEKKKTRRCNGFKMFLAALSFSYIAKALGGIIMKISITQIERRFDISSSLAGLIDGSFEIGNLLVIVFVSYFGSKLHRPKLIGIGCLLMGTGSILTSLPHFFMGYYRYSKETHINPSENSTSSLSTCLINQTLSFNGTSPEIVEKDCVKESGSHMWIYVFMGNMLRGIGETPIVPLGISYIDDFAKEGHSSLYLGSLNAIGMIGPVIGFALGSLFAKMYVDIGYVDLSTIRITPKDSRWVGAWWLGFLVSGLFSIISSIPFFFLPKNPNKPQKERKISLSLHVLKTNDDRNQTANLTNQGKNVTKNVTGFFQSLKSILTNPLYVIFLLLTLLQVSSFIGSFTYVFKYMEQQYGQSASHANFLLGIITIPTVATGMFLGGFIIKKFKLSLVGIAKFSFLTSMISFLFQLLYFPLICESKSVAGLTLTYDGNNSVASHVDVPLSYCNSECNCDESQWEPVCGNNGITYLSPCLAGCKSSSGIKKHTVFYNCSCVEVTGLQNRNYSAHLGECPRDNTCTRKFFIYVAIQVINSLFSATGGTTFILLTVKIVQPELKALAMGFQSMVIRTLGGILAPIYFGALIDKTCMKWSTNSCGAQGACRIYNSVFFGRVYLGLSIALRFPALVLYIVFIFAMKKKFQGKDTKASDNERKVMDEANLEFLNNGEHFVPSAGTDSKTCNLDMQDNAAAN
# Sequence of UniProt P08684 (whole entry, looked up): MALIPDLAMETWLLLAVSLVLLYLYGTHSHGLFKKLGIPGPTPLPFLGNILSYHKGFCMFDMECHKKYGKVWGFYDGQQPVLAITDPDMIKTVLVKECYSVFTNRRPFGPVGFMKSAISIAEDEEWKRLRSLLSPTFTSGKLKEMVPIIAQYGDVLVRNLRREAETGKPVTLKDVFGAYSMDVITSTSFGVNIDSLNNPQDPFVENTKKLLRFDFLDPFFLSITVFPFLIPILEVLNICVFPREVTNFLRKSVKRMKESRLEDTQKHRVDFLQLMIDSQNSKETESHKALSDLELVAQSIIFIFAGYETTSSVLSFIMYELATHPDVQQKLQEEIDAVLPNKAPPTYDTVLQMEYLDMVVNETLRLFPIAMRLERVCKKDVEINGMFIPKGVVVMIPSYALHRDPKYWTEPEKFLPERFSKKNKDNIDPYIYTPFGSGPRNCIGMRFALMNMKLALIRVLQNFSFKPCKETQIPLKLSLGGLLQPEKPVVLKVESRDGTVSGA
# Sequence of UniProt P10635 (whole entry, looked up): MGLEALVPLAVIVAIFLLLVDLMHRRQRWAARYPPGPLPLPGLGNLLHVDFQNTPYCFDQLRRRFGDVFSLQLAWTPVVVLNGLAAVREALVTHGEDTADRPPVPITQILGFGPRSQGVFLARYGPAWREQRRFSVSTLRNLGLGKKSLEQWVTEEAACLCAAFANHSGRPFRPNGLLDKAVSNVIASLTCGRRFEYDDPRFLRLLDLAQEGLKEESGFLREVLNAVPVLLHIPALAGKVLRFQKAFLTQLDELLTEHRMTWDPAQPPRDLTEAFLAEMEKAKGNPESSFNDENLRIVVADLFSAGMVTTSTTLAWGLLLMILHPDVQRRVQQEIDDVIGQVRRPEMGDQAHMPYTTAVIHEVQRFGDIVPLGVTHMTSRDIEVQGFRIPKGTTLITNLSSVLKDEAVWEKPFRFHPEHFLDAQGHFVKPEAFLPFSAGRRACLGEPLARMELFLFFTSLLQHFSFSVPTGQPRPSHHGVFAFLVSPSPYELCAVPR
Compound,target or system,test,test system,setting,scale,endpoint,result
CC(C)C[C@H](NC(=O)C[C@H](O)[C@H](CC(C)C)NC(=O)[C@H](Cc1c[nH]cn1)NC(=O)CNC(=O)[C@@H](NC(=O)[C@H](C)NC(=O)[C@H](Cc1c[nH]c2ccccc12)NC(=O)[C@H](CCC(N)=O)NC(=O)[C@@H](Cc1ccccc1)NC(=O)COCCOCCNC(=O)CCC(C(=O)O)N1CCN(CC(=O)O)CCN(CC(=O)O)CCN(CC(=O)O)CC1)C(C)C)C(N)=O (stereo partly drawn) [lutetium-177 labelled],,,"female BALB/c nu/nu mice, brain","intravenous, 100 pmol, 2 h, together with: PA 300 µg",,tissue uptake,0.012 ± 0.002 %ID/g
CC(C)c1nc(N(C)S(C)(=O)=O)nc(-c2ccc(F)cc2)c1/C=C/[C@@H](O)C[C@@H](O)CC(=O)O,"SLCO1B3 (Homo sapiens, UniProt Q9NPD5, M233I)","uptake, substrate",HEK293-A stably expressing SLCO1B3,2 min,,Vmax,412 ± 119 pmol/mg protein/min
CNCCOC12CC3(C)CC(C)(CC(Cn4ncc(-c5ccc(N6CCc7cccc(C(=O)Nc8nc9ccccc9s8)c7C6)nc5C(=O)O)c4C)(C3)C1)C2,,,anaesthetised male beagle dogs,"intravenous bolus, 0.03 mg/kg, 60 min",relative to: baseline,systemic vascular resistance change,19%
Cn1cc(-c2ccc(-c3cncc(Cl)c3N3CCC4(CCNC4=O)CC3)cc2)cn1,COLO 205,"gene expression, microarray, refers to: TNFRSF12A mRNA",,"concentration not given, 2 h",relative to: untreated cells,log2 fold change,2.46
CCc1cc(/C(C)=N/OCc2ccc(C3CCCCC3)c(C(F)(F)F)c2)ccc1CN1CC(C(=O)O)C1,"Cytochrome P450 2C9 (CYP2C9, Homo sapiens, UniProt P11712)",population PK,"human, CYP2C9*2/*3, plasma",,,CYP2C9-mediated clearance,1.07 L/h
COC(=O)c1cccc(-c2cccc(Nc3nccc(NC4CCCCC4)n3)c2)c1,P-glycoprotein (human MDR1),,MDR1-MDCKII,"10 µM, 1 h, pH 7.4",,Papp (B-A),0.076 ± 0.054 ×10⁻⁶ cm/s
N#C[C@H](C[C@@H]1CCCNC1=O)NC(=O)[C@H](CC1CC1)NC(=O)c1cc2cccc(Cl)c2[nH]1,"Cytochrome P450 2D6 (CYP2D6, Homo sapiens, UniProt P10635)",NADPH metabolic stability,,"2 µM, pH 7.4, 37 °C, 100 pmol/mL enzyme",,half-life,48.8 min
c1cncc(-c2cccc(Nc3nccc(NC4CCCCC4)n3)c2)c1,P-glycoprotein (human MDR1),,MDR1-MDCKII,"10 µM, 1 h, pH 7.4",,Papp (A-B),10.4 ± 4.92 ×10⁻⁶ cm/s
Cc1c(-c2ccc(N3CCc4cccc(C(=O)Nc5nc6ccccc6s5)c4C3)nc2C(=O)O)cnn1CC12CC3(C)CC(C)(C1)CC(OCCNCC[C@H](O)CO)(C3)C2,,,anaesthetized male beagle dog,"iv infusion, 0.01 mg/kg/min, 60 min",,plasma concentration,< 2 ng/mL
CNC(=O)c1cc(Oc2ccc(NC(=O)Nc3ccc(Cl)c(C(F)(F)F)c3)cc2)ccn1,SLCO1B3 M233I/S112A,"substrate, uptake",HEK293-A stably expressing SLCO1B3,2 min,,Km,15.6 µM
CC[C@H]1[C@@H](O)[C@@H]2[C@H](CC[C@]3(C)[C@@H]([C@H](C)CCNC(=O)NS(=O)(=O)c4ccc(C(C)(C)C)cc4)CC[C@@H]23)[C@@]2(C)CC[C@@H](O)C[C@@H]12,"Cytochrome P450 3A4 (CYP3A4, Homo sapiens, UniProt P08684)",,"human, plasma","geometric mean, alone",,CL/F,12.2 L/h
CC[C@H](C)CCCCC(=O)N[C@@H](CCN)C(=O)N[C@H](C(=O)N[C@@H](CCN)C(=O)N[C@H]1CCNC(=O)[C@H]([C@@H](C)O)NC(=O)[C@H](CCN)NC(=O)[C@H](CCN)NC(=O)[C@H](CC(C)C)NC(=O)[C@@H](Cc2ccccc2)NC(=O)[C@H](CCN)NC1=O)[C@@H](C)O,plasma proteins,equilibrium dialysis,"human, normal renal function, plasma","intravenous, 0.75 mg/kg, 4 h, 37 °C",,fu,0.047
c1ccc(-c2cccc(Nc3nccc(NC4CCCCC4)n3)c2)cc1,P-glycoprotein (human MDR1),,MDR1-MDCKII,"10 µM, 1 h, pH 7.4",,Papp (B-A),0.028 ± 0.021 ×10⁻⁶ cm/s
CC(C)n1c(/C=C/C(O)CC(O)CC(=O)O)c(-c2ccc(F)cc2)c2ccccc21 (stereo not drawn),SLCO1B3 M233I/S112A,"substrate, uptake",HEK293-A stably expressing SLCO1B3,2 min,,Km,4.14 µM
Cc1cc(Nc2ccc(S(F)(F)(F)(F)F)cc2)n2nc(C(C)(F)F)nc2n1,Plasmodium falciparum,,P. falciparum malaria patients,"oral, 400 mg",,patients with any adverse event,76.9%

# Repeated from above:
Compound,target or system,test,test system,setting,scale,endpoint,result
COC(=O)c1cccc(-c2cccc(Nc3nccc(NC4CCCCC4)n3)c2)c1,P-glycoprotein (human MDR1),,MDR1-MDCKII,"10 µM, 1 h, pH 7.4",,Papp (B-A),0.076 ± 0.054 ×10⁻⁶ cm/s
CC(C)C[C@H](NC(=O)C[C@H](O)[C@H](CC(C)C)NC(=O)[C@H](Cc1c[nH]cn1)NC(=O)CNC(=O)[C@@H](NC(=O)[C@H](C)NC(=O)[C@H](Cc1c[nH]c2ccccc12)NC(=O)[C@H](CCC(N)=O)NC(=O)[C@@H](Cc1ccccc1)NC(=O)COCCOCCNC(=O)CCC(C(=O)O)N1CCN(CC(=O)O)CCN(CC(=O)O)CCN(CC(=O)O)CC1)C(C)C)C(N)=O (stereo partly drawn) [lutetium-177 labelled],,,"female BALB/c nu/nu mice, brain","intravenous, 100 pmol, 2 h, together with: PA 300 µg",,tissue uptake,0.012 ± 0.002 %ID/g
